# Measurements pooled from the literature.
# Protocols differ between the studies behind these lines. Numbers after ± are the reported error.
SMILES,cell line,test,setting,IC50
CC1=C2[C@@H](O)[C@H](C(=O)O)CC[C@@]2(C)CCC1=O,human Neutrophil,"superoxide release, inhibitor, absorbance",,> 10 µM
O=C(Cc1ccc2ccccc2c1)N[C@H](Cc1ccccc1)C(=O)N[C@H](Cc1ccccc1)C(=O)N[C@H](Cc1ccc(O)cc1)C(=O)N[C@H](Cc1ccc(OP(=O)(O)O)cc1)C(=O)O,SAOS-2,"cell growth or viability, MTT",,170 µg/mL
CC[C@H](C)[C@H](NC(=O)[C@H](CCCCN)NC(=O)[C@@H](NC(=O)[C@H](CCC(N)=O)NC(=O)[C@@H](N)CCCNC(=N)N)[C@@H](C)CC)C(=O)N[C@@H](Cc1c[nH]c2ccccc12)C(=O)N[C@@H](Cc1ccccc1)C(=O)N[C@@H](CCC(N)=O)C(=O)N[C@@H](CC(N)=O)C(=O)N[C@@H](CCCNC(=N)N)C(=O)N[C@@H](CCCNC(=N)N)C(=O)N[C@@H](CCSC)C(=O)N[C@@H](CCCCN)C(=O)N[C@@H](Cc1c[nH]c2ccccc12)C(=O)N[C@@H](CCCCN)C(=O)N[C@@H](CCCCN)C(=O)N[C@@H](CO)C(=O)N[C@@H](Cc1c[nH]c2ccccc12)C(=O)N[C@H](C(=O)N[C@@H](Cc1c[nH]c2ccccc12)C(=O)N[C@@H](CCC(=O)O)C(=O)N[C@@H](CCCCN)C(=O)N[C@@H](CCCCN)C(=O)N[C@@H](CC(C)C)C(=O)N[C@@H](CCC(=O)O)C(=O)N[C@H](C(=O)N[C@@H](C)C(=O)N[C@H](C(=O)N[C@@H](CC(N)=O)C(=O)N[C@@H](CC(C)C)C(=O)N[C@@H](C)C(=O)N[C@@H](Cc1c[nH]c2ccccc12)C(=O)N[C@H](C(=O)N[C@@H](C)C(=O)NCC(=O)N[C@@H](CC(N)=O)C(=O)N[C@@H](CO)C(=O)N[C@@H](CC(N)=O)C(=O)N[C@@H](CCCCN)C(=O)N[C@@H](Cc1c[nH]c2ccccc12)C(=O)N[C@H](C(=O)N[C@@H](Cc1c[nH]c2ccccc12)C(=O)N[C@@H](CCCCN)C(=O)O)[C@@H](C)O)[C@@H](C)O)C(C)C)[C@@H](C)O)[C@@H](C)O,CLL patient PBMCs,"cell death, PI staining flow cytometry","90 min, room temperature, serum-free medium",0.7 µM
Cc1nn(-c2ccccc2)c(O)c1C(c1ccc(F)cc1)c1c(C)nn(-c2ccccc2)c1O,Ishikawa,"cell growth or viability, MTT",48 h,38.2 µM
O=C(Nc1ccc(Br)cc1)c1cc(Br)cc(Br)c1O,patient-derived fibroblasts,"cell growth, PrestoBlue",72 h,9.1 µM
Cc1cc(C)c(-n2ccn(-c3c(C)cc(C)cc3C)c2=[Se])c(C)c1.[Cl][Ag],LoVo-OXP (oxaliplatin-resistant),MTT,72 h,0.9 ± 0.1 µM
O=C(O)c1ccc([PH]([Au][Cl])(c2ccccc2)c2ccccc2)cc1,MDA-MB-157,"cell growth or viability, resazurin","72 h, 3D culture",9.4 µM
CNC(=O)c1cc(Oc2ccc(NC(=O)c3ccc(-c4ccc(COC(=O)CCC(=O)OC5OC6OC7(C)CCC8C(C)CCC(C5C)C68OO7)cc4)cn3)cc2)ccn1 (stereo not shown),Hep3B,"cell growth or viability, MTT",72 h,9.88 µM
CCC(=O)C(NC(=O)c1ccccc1-c1ccc(C(F)(F)F)cc1)c1cccc(C(F)(F)F)c1 (stereo not shown),KHYG-1 and MICA-expressing Ba/F3,NKG2D-mediated cell killing,6 h,> 20 µM
C1N2CN3CN1CP(C2)C3.CC(C)OC(=O)C(n1cccn1)n1cccn1.F[P-](F)(F)(F)(F)F.[Cu+],PSN1,"cell growth or viability, MTT",72 h,30.1 µM

# Some of these lines once more:
SMILES,cell line,test,setting,IC50
O=C(Cc1ccc2ccccc2c1)N[C@H](Cc1ccccc1)C(=O)N[C@H](Cc1ccccc1)C(=O)N[C@H](Cc1ccc(O)cc1)C(=O)N[C@H](Cc1ccc(OP(=O)(O)O)cc1)C(=O)O,SAOS-2,"cell growth or viability, MTT",,170 µg/mL
Cc1cc(C)c(-n2ccn(-c3c(C)cc(C)cc3C)c2=[Se])c(C)c1.[Cl][Ag],LoVo-OXP (oxaliplatin-resistant),MTT,72 h,0.9 ± 0.1 µM
